Results collected from several papers.
Numbered parts are unrelated; each lists some results of a single study. Positions count from the first letter of the parent shown.

Series 1
Target: RNA binding protein fox-1 homolog 2, RRM domain, GST-SBP tag (RBFOX2, Homo sapiens, UniProt O43251-10, residues 100-194)
Method: RNA Bind-n-Seq
Molecule type: RNA
Sample: in vitro
Concentration: 365 nM
Setting: natural RNA segment, single round, ends assumed
Reference: no-protein control
Reading: higher = stronger binding
Constant ends, left off below: GGGAGUUCUACAGUCCGACGAUC … UGGAAUUCUCGGGUGCCAA
Target sequence (chain): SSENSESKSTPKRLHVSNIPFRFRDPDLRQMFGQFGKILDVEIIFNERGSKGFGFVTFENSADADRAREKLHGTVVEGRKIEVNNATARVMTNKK
| Strand | RBNS enrichment (R) |
| --- | --- |
| GCUCUUCUUCCUUUCUUCCCCCCGUGUAUGUAAAUGAAUUCCUGAACCCCAUACUUCACCUAAUGGUAGGGGCUUGCUUGUUUUGCACAGGAUUAAUUAACAAGUUAAUU | 1.4 |
| ACUGUGUCUGCCCAGUAACCUGUUCUGAGUUACUGGUAAAGUCGUGGGUGGGUGAAUGGCAGGCUUCUGUAGGAACUUGUGUAAUUAUGCCAUUUUUAUAUUCCUAAUAA | 0.661 |
| CCCACCCCCUUCAGUGCCCACCAACAUCCCAUUGCCCUGGUUAUAUUCUCACGGGCAGUAGCUGUGGUGAGGUGGGUUUUCUUCCCAUCACUGGAGCACCAGGCACGAAC | 0.455 |
| GGCAGGGUGGAUGCCACAGGCCCCUCUGGCUCCCAGGUGCUGCUUCUCCACAGGUGCGGCCUGGCCCGGCCUCCUAAAGGCCACACCCUCCCCACGCACUUCCCAGGCCA | 0.346 |
| UUUCAAUGUCAGUCACAGAGUGGAAGUUUCCCCAAAGUGGAAAGCUACCAUUGGGAACACAAGGGGCCCCUGAGGGGCCUCCACCUCACUGCCUUAAGUGAGUCCCGCCC | 0.201 |
| UUGCACAGGAGUGGGGCUCUGGUGACCGAAGGUUGUCCAGGACUCUUGCAGGAGAAGCAAUGGAGUCAGUGUGGUGUGGGGAGACCUACUUUUUAACCUGGGCUUAGCCA | 0.538 |
| CGACUUUGGACAGAGUAAUGACUCCCCAGAAAACGUCAUAUAAGACUUUACCAGCCCCUGAGAGGACCAGGAGGAGCAUCCUUGACCUUCAUUUAACUUGGCUCACUUCU | 0.384 |
| UAAGCAGGUUAACAGGAGCAUUGGCCACCAGCAGAAGGGCAUCACUGUCUCAGGCCUCAAGCCAGGCACCCAUCUCUGGAUGCCAGUCUAUAGCGGGUACCAGAGGAAAG | 0.388 |
| CCCUUUUAACCAGUGCUGUGAUGGAUGAAGGCCAAUCUUGUUUCCUUUCAUCUAGUACCUGGACCAUUCUCCCUAGACCCUUGCCUUCCUCCCUGGCCAACACAUACUUG | 0.606 |
| UCACUUCAUUUUCAGAGUUAAUGGGAUCCAUGGUGCAAACUCCAUUAGCAGUUUUAUGCUGGCGAUAAUUUAUCUACGUGCAUUGCAAUAAACAUUUCGUUUCCUAAGAU | 0.917 |
| GAGAAAAUCCAACCCAUUGCAAGAAGCUCUUUGUGGGUGCCUGGUUACAUCGGAGCAGGGGAGCCUCAAAUCCACCUUUGGAGCCGCCCCUGUGUGCAUUAGGAACCCUU | 0.584 |

Series 2
Target: CCND3, cyclin fold, Cln2 fusion (human)
Method: yeast growth competition, sequencing
Sample: yeast
Setting: weak parent motif
Reference: not given
Reading: higher = stronger binding
Parent: SAMHD1 docking peptide (human); ASKSRVQLFKDDP
| Variant | normalised enrichment score |
| --- | --- |
| ASKSRVQLFMDDP [K10M] | 0.147 |
| ASMSRVQLFKDDP [K3M] | 0.13 |
| ASKSRVQWFKDDP [L8W] | 0.182 |
| ASKSRVQMFKDDP [L8M] | 0.293 |
| ASKSRVQLFKDKP [D12K] | -0.0346 |
| ASPSRVQLFKDDP [K3P] | -0.117 |
| ASESRVQLFKDDP [K3E] | -0.19 |
| ASKSRVQLFEDDP [K10E] | 0.269 |
| ASHSRVQLFKDDP [K3H] | 0.0351 |
| ASKSRNQLFKDDP [V6N] | 0.136 |
| ASDSRVQLFKDDP [K3D] | -0.148 |
| ASKSRVQLHKDDP [F9H] | 0.186 |

Series 3
Target: Interferon regulatory factor 5, full length, phosphomimetic (IRF5, Homo sapiens, UniProt Q13568-2, residues 1-514, S451D/S453D/S456D/S462D)
Method: protein-binding microarray
Molecule type: double-stranded DNA, one strand shown
Sample: in vitro
Concentration: 940 nM top
Setting: 60-bp whole probe
With: salmon DNA 0.4 mg/ml
Reference: random background probes
Reading: higher = stronger binding
Constant ends, left off below: GCCTAGCAC … GTCTTGATTCGCTTGACGCTGCTG
| Strand | fitted relative affinity [z-score] |
| --- | --- |
| TTAGATTTCGGGTTTCGATTTGTGCTA | 5.61 |
| GACGGTTTCAACACTGGGGACGTGCTA | 1.91 |
| TTGTTTTACAATTTGCTTTAGTGCTAG | 0.312 |
| GAGCCTCTGTTTTGAGCACAGTGCTAG | -0.195 |
| GACGAGTCCAGTTTCGAGACGTGCTAG | 4.68 |
| GACGCTCTCAGTATCGAGACGTGCTAG | 3.03 |
| TTAGGTCTCCTTAGCCTTTAGTGCTAG | -0.203 |
| TTAGAGCTCAGTATCGATTAGTGCTAG | 4.36 |
| TTAGGACTTGGACTGGGTTAGTGCTAG | -0.334 |
| TCACCTTGGAAGTATGACACTGTGCTA | 0.0379 |

Mixed results
| Molecule | target | assay | system | conditions | scale | endpoint | result |
| --- | --- | --- | --- | --- | --- | --- | --- |
| PhoQ, residues 284 288 289 292 302 303 TYGVAM | PhoP, residues 12 14 15 18 19 AQCLL (Escherichia coli, UniProt P23836) | Sort-seq, measured: YFP reporter | E. coli | PhoQ-PhoP variant library, with: 10 µM Mg2+ | reference: high Mg2+ state, higher = stronger signaling | fold induction | 0.967 |

Excerpt of the above (series 2):
| Variant | normalised enrichment score |
| --- | --- |
| ASKSRVQMFKDDP [L8M] | 0.293 |
| ASKSRVQLFKDKP [D12K] | -0.0346 |
